Measured values from different studies.
Parts stem from different laboratories: compare values within a part only.

Series 1 — method: RNA Bind-n-Seq; molecule type: RNA; medium: in vitro; concentration: 1 µM; notes: whole 134-nt RNA, ends assumed; together with: 150 mM KCl; baseline: input library; direction: higher = stronger binding
Target: Ras GTPase-activating protein-binding protein 1, RRM domain (G3BP1, Homo sapiens, UniProt Q13283)
Chain of UniProt Q13283 (whole entry, looked up): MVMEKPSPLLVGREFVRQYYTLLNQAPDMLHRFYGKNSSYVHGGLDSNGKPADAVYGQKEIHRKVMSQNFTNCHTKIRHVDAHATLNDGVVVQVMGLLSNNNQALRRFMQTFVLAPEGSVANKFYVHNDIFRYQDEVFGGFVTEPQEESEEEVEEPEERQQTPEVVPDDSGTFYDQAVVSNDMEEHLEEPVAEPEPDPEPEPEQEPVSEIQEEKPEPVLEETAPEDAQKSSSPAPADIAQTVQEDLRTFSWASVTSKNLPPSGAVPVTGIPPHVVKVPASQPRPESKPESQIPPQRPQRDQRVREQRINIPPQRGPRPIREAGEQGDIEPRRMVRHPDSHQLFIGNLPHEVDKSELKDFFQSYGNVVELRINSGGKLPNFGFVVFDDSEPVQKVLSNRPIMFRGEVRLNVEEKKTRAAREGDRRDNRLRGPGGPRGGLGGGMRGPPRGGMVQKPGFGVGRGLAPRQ
Sequence | log2 enrichment
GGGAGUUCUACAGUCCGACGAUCCAAGUCCUGUGCUACACAUCGUAUGUACCGAAUCAAACCCAAAUUUAAACCCAAAAAAGUAUUAUGUUACGCCGUUCGGAUCUGCACUUCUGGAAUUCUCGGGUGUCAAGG | -0.216
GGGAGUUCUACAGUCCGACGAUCGUCCUGUGCUACACAUCGUAUGUACCGAAUCGGGAGGGUUUUUUUGGGUUUUUUUGGGAAAGUAUUAUGUUACGCCGUUCGGAUCUGCACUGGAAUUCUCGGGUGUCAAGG | 0.0709
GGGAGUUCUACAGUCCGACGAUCCCUCAAGUCCUGUGCUACACAUCGUAUGUACCGAAUCGGAGGGGAGGAGGGGAAAGUAUUAUGUUACGCCGUUCGGAUCUGCACUUCCAGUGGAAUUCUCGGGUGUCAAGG | -0.165
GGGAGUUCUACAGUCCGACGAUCUCCUCAAGUCCUGUGCUACACAUCGUAUGUACCGAAUCGGAGGGGAGGGAGGAAAGUAUUAUGUUACGCCGUUCGGAUCUGCACUUCCAGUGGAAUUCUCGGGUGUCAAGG | -0.193
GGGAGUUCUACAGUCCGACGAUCAGUCCUGUGCUACACAUCGUAUGUACCGAAUCGGGAAAAAGGGAAAAAGGGAAAAAGGAAAGUAUUAUGUUACGCCGUUCGGAUCUGCACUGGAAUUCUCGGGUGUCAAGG | -0.0765
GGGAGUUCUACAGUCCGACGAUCAAGUCCUGUGCUACACAUCGUAUGUACCGAAUCGGGCCCCGGGCCCCGGGCCCCGGAAAGUAUUAUGUUACGCCGUUCGGAUCUGCACUUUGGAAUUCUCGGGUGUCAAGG | -1.1
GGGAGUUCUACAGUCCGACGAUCCCUGUGCUACACAUCGUAUGUACCGAAUCGGGGAAAAAGGGGAAAAAAAGGGGUUUGGGGAAAGUAUUAUGUUACGCCGUUCGGAUCUGCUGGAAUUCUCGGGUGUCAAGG | 0.587
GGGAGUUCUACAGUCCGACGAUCACCAUGCAGGUGGGCAUCUUUGGGAAGUGGGGCAAGGGGGGGAUAGGGAGGGGGUUAACACUUUGGGAACAGGUGGUCCCAGGUCGUUUCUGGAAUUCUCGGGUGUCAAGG | 0.654
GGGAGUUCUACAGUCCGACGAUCAGUCCUGUGCUACACAUCGUAUGUACCGAAUCGGGUUUGGGAAAAAAAGGGAAAGGGAAAGUAUUAUGUUACGCCGUUCGGAUCUGCACUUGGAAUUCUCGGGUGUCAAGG | 0.494
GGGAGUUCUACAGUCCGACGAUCCCUGUGCUACACAUCGUAUGUACCGAAUCAAAUUUUUUUAAACCCCCAAACCCCCCCAAAAAAGUAUUAUGUUACGCCGUUCGGAUCUGCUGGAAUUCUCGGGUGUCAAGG | -1.29

Series 2 — method: protein binding microarray; molecule type: double-stranded DNA, one strand shown; medium: in vitro; concentration: not given; baseline: not given; direction: higher = stronger binding
Target: Histone acetyltransferase KAT6A, winged helix 2, GST fusion (KAT6A, Homo sapiens, UniProt Q92794, residues 85-181)
Notes: 8-mer, flanks averaged, mean of 2 arrays, mostly near background
Construct (chain): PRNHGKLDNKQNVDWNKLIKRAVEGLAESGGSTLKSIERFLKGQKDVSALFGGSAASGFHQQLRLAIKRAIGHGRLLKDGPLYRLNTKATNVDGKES
Sequence | E-score
ACTACCCT | -0.232
ACATGCAG | 0.0673
ATGCTTAA | -0.0795
AATATGAC | -0.0813
ATTTTTCC | 0.00426
AAATATCA | 0.166
GAACATGC | -0.0893
CCGCGTAC | 0.144
ATTAATCG | 0.11
CAATAAGC | 0.0143
AGTCGACT | -0.112
CTTAGCAA | 0.131
GTTTTGTA | 0.0435
ATAAGCAC | 0.0788
ATCGGATC | 0.0822
CCAGTAAC | -0.0141
GCGTACCC | 0.152
AGAAGACC | -0.0428
CCGTCCTA | -0.243
CTTTGCCA | 0.0641
TCGCTTCA | 0.104
CAGCCTAA | -0.0893
ACCCTCAC | 0.0362

Series 3 — method: competition protein-binding microarray; molecule type: double-stranded DNA, one strand shown; medium: in vitro; concentration: 2 µM; together with: Pho4 competitor, 0.05 µM; direction: higher = stronger binding
Target: Centromere-binding protein 1, full length, His-tagged (CBF1, Saccharomyces cerevisiae, UniProt P17106, residues 1-351)
Chain of UniProt P17106 (whole entry, looked up): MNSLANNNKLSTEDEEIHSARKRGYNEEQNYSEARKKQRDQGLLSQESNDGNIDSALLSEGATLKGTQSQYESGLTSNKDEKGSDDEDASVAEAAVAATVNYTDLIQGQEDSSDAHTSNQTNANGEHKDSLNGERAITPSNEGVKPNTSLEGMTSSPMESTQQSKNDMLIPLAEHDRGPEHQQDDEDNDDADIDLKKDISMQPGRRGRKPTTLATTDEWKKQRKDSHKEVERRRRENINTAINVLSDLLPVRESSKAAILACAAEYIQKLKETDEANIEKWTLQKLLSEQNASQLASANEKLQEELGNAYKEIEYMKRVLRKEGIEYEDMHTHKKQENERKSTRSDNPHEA
Notes: whole 60-bp probe, lowest competitor level
Sequence | fluorescence intensity
AAATTACTAAGTTGGGAAGTGGGTGACGCCGTATGAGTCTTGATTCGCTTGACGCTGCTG | 67 a.u.
AAGACCGGTGCTTTGACCGTTTCCAATACGGAAAGAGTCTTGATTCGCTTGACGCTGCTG | 66.3 a.u.
CTTCTATGACCTCTTCACGTGGCCGAATGTTCTGTTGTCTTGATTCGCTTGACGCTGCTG | 780 a.u.
ATCAAATGCTGATACCACATGTATGCTATAGTGTCGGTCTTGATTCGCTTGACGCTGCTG | 128 a.u.
CTATTGATATGCTTGCATGTGGACGCAAGCAGACGCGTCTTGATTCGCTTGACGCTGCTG | 103 a.u.
AAGCTGAAGGTGCATTGCATGACGCACTATGTGTGGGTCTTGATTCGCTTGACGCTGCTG | 66.2 a.u.
TAGAGGAAAGAAAGAAACGTGGGTAAAACAGGGGCCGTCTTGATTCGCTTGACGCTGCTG | 97.2 a.u.
GTCTTGTCTCATTGCAATGTGGGTGTCCCCACTTCAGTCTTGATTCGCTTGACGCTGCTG | 113 a.u.
CTAACGAAGGTTTGAACGGTGGGTGACAAGCCAAGTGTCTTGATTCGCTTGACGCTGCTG | 61.9 a.u.
AGGCCCAAATGCTTGCACAGGCACAAGCTCAGGCTCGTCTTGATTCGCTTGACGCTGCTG | 60.3 a.u.
TGCGCAACAACTTGTTAAGTGGGTGTATGTCTAGAAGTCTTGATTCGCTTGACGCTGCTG | 64.6 a.u.
CATACCCAACCTTGCAATGTGGGTGAAGATATTTGTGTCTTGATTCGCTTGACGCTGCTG | 77.3 a.u.
CGGGGTTAAGTTTTTCACGTGTTATGCTTGCAGCAGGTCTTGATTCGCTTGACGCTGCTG | 1150 a.u.
AAAGCGGTAATTTGGTAAGTGGGTGCAGATATCTATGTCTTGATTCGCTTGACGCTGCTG | 73.4 a.u.
TGCGCAACAACTTGTCACCCGACTTTATGTCTAGAAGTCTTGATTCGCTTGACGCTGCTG | 81.4 a.u.
ATTTTTGAGTCAGTTTCCGTGACGGTGAAGTGAGCGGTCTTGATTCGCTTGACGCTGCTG | 75.8 a.u.
CCGGCTTCAATCGTCCCCGTGCCAGATAAACCAAAAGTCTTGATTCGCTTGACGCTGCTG | 218 a.u.
TCGGCCATTGAGTTCCACGTTTAATACCGCCAGAGTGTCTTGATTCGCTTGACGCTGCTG | 72.2 a.u.
AAGTTTGTAATTTTCCTCGTGTCCATAGTGGAAGATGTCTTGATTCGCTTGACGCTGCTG | 147 a.u.
CTTCTGTAAATTTGGGTCGTGGGTGGACGCGCCCCGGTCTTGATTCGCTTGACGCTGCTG | 61.6 a.u.
TCGCTCTTCGCTCTGAATGTGACGGCAAATTTCGACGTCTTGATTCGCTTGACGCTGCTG | 82.6 a.u.
CCCTTGCATCGCTGCCGTGTGGCGCGACCCACTGCGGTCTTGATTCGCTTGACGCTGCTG | 67.2 a.u.
CTTTCCCGATCTTGAAATGTGGGTGTAGCACATTTGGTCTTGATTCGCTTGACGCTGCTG | 83.1 a.u.
CATACCCAACCTTGAATGGTGGGTGAAGATATTTGTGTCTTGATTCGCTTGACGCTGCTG | 68.5 a.u.

Series 4 — method: RNA Bind-n-Seq; molecule type: RNA; medium: in vitro; concentration: 365 nM; baseline: no-protein control; direction: higher = stronger binding
Target: RNA binding protein fox-1 homolog 2, RRM domain, GST-SBP tag (RBFOX2, Homo sapiens, UniProt O43251-10, residues 100-194)
Notes: natural RNA segment, single round, ends assumed
Target sequence (chain): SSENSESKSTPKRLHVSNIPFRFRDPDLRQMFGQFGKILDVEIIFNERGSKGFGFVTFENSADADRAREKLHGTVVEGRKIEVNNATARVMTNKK
Sequence | RBNS enrichment (R)
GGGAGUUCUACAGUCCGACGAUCGGUCUAUUUCCUGUUGCCGCUCUGCAGCCUGGACCUGUGGACCCUGGUUGUAAAGAGUAAAACUGUAUCUUAGGAAACCAGUGUCACCUUUUUCACCUUUUAAUUUUAUAUGGAAUUCUCGGGUGCCAA | 0.364
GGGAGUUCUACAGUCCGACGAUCUGCCUGCACCUGCACUCUAGUGACCCUGGGUGCCGCCAGACCCUUCUCUUCUACAAAGACCCCAGCAGGAGUGGGAGGGUCUGCAAUGGCAUCGCCCUGUCCUGCCUUGGUGGAAUUCUCGGGUGCCAA | 0.631
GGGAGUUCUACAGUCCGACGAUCAUCCAGAUGUGAGCCCAGCCAGGGUCCUAUGGUUCCAAAUCUGAAGAAAAGGUUUUUCACACACUCCUUGCUUUCUGCUAAGAUAAGAAAGGCGUCACUCUGCCAGAGUGUGGAAUUCUCGGGUGCCAA | 0.255
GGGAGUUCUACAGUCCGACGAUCUAAUGGAGUCGUCAGACGCCUCCGCUUACCGUGAACCAGUAUGAGCUUGGGAGAAAGGAACUGGAAGAACAUGAAAAAGCAGGGGCAUGUGUAGACAUUAGUGAAAAUUAUGGAAUUCUCGGGUGCCAA | 1.13
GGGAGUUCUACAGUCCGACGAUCUGUUAGGAUUCCCACACGAACACCAAGCUACUCAGCCAUAACAUAUGCAGAGGACUUGCUCAGACUCCUACAGGCUCCUGAUCACUGCAAGCCCCCAGUACCGGUCAGUUUGGAAUUCUCGGGUGCCAA | 0.246
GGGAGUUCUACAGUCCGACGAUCCCCGCCCCCGCCUUCCCUCUUCCCUCUUCCCUCUCCCUGCCCAGCCCUCCCUUCCUUCCUCUGCCGGCAAGGCAGGGACCCACAGUGGCUGCCUGCCUCCGGGAGGGAAGUGGAAUUCUCGGGUGCCAA | 0.701
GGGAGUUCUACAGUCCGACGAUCCACUUUAUGGGUUCUAGAUGAUGUUUUGACAUGUGCUCAACCUUGAUUUGUUGAUUUAGUUAAAAUAUACUAUUCCUAGAUUUAUUUAACAGUCUUUCUUAAAAUCAGUAUGGAAUUCUCGGGUGCCAA | 0.464
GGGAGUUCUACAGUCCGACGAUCAAAAAUACAAGCCAGGAUUCUGCUCCCAAACCUUCAGGACAAUGGGUAGUCCCCAUGGGACCUUAAAAGACCCAUAGCUGAGUAGUCUCCCUUGUCUACCCUGCUUUAAGUGGAAUUCUCGGGUGCCAA | 0.38
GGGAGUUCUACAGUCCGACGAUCAAGAGGCAGAAUCCACCAAAGGCCUUGAACUACCCAUGCUGGGGAAAAGCAUAAAGGGCUGCCUAGUACCGCCCGUUCCCUCCACGCCAGGUGGAGACUACAAGGAGACUUGGAAUUCUCGGGUGCCAA | 0.571
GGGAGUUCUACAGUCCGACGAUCACCUGAAAAUGCAACAGAAAGGGAGCGUGGGUACGAGGGCCUGGUUUCUACUGUGUGUAAAUGGGAGUCGCUCUCAUUAGUCCCAUUGCACUGACAUCCAGCACCUGGACUGGAAUUCUCGGGUGCCAA | 2.51
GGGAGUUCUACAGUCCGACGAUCUUAUGUCUGAAUGAGAAAUCUUCUGUAAGCAGAAGUUAUUUAAUAAUUCCCAGCACCACGAAAUUGUUAUACAUACAUCCCUACCAGUCACAUUCCCUGUGUUCAGAGCCUGGAAUUCUCGGGUGCCAA | 0.359
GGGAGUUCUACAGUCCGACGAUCAGUUGAGUCAUUUCGCAAACAUUUACUGAGCACCUCCUGUGUGCCAGGCUCCUAGAAAGACAGGGAGUUGGUGCCCUGCACAGAUGACAAACUGCCCCAGACAGCAGACAUGGAAUUCUCGGGUGCCAA | 0.371

Repeated from above (series 2):
Sequence | E-score
AATATGAC | -0.0813
ATTTTTCC | 0.00426
AAATATCA | 0.166
GAACATGC | -0.0893
CCGCGTAC | 0.144
ATTAATCG | 0.11
CAATAAGC | 0.0143
AGTCGACT | -0.112
